Experimental data of several laboratories.
Several values in a cell are separate wells, animals, samples, runs or records. Numbers after ± are the reported error.

Structure (SMILES)	assay	system	setting	scale	measurement	value
[2H]C([2H])([18F])[C@]([2H])(N)C(=O)O	PET	athymic nude mice, U-87 MG	dose not given, 30 min post-injection	relative to: tumour over muscle	tumour-to-muscle ratio	1.74 ± 0.43
CCCCCCCCCCCCCCCC(=O)N[C@@H](CCC(=O)NCCOCCOCCC(=O)NCCOCCOCCC(=O)NCCCC[C@H](NC(=O)[C@H](CC(=O)O)NC(=O)[C@H](CC(C)C)NC(=O)[C@H](Cc1ccc(O)cc1)NC(=O)[C@H](CCCCN)NC(=O)[C@H](CO)NC(=O)[C@H](Cc1ccc(O)cc1)NC(=O)[C@H](CC(=O)O)NC(=O)[C@H](CO)NC(=O)[C@@H](NC(=O)[C@H](Cc1ccccc1)NC(=O)[C@@H](NC(=O)CNC(=O)[C@H](CCC(N)=O)NC(=O)[C@@H](CO)NC(=O)[C@@H](N)Cc1c[nH]cn1)[C@@H](C)O)[C@@H](C)O)C(=O)N[C@@H](CCCNC(=N)N)C(=O)N[C@@H](CCCNC(=N)N)C(=O)N[C@@H](C)C(=O)N[C@@H](CCC(N)=O)C(=O)N[C@@H](CC(=O)O)C(=O)N[C@@H](Cc1ccccc1)C(=O)N[C@H](C(=O)N[C@@H](CCC(N)=O)C(=O)N[C@@H](Cc1c[nH]c2ccccc12)C(=O)N[C@@H](CC(C)C)C(=O)N[C@@H](CC(C)C)C(=O)N[C@@H](CC(N)=O)C(=O)N[C@H](C(=O)NCC(=O)NCC(=O)N1CCC[C@H]1C(=O)N[C@@H](CO)C(=O)N[C@@H](CO)C(=O)NCC(=O)N[C@@H](C)C(=O)N1CCC[C@H]1C(=O)N1CCC[C@H]1C(=O)N1CCC[C@H]1C(=O)N[C@@H](CO)C(N)=O)[C@@H](C)O)C(C)C)C(=O)O		rhesus monkey, female	subcutaneous, 300 µg/kg once daily, 28 days		creatinine	45.4 ± 4.7 µmol/L
CCCC[C@H]1C(=O)N(C)[C@@H](CCCC)C(=O)N[C@@H](CCCNC(=O)CN2CCN(CC(=O)O)CCN(CC(=O)O)CCN(CC(=O)O)CC2)C(=O)N[C@H](C(=O)NCC(N)=O)CSCC(=O)N[C@@H](Cc2ccc(O)cc2)C(=O)N(C)[C@@H](C)C(=O)N[C@@H](CC(N)=O)C(=O)N2CCC[C@H]2C(=O)N[C@@H](Cc2c[nH]cn2)C(=O)N[C@@H](CC(C)C)C(=O)N(C)CC(=O)N[C@@H](Cc2c[nH]c3ccccc23)C(=O)N[C@@H](CO)C(=O)N[C@@H](Cc2c[nH]c3ccccc23)C(=O)N1C [gallium-68 labelled]		NOD/SCID mice with CHO-hPD-L1 xenograft, stomach	60 min post injection		tissue uptake	5.67 ± 2.31 %ID/g
CN1Cc2cc(Cl)ccc2-n2c(nnc2C2CCN(c3cccc([18F])n3)CC2)C1		C57BL/6 mouse male, thymus	intravenous, dose not given, 30 min, together with: blocking agent 10 mg/kg		tissue uptake	3.71 ± 2.76 %ID/g
C=CC(=O)Nc1cccc(Cn2ncc3cnc(Nc4cnn(CCOC)c4)nc32)c1		male Sprague-Dawley rat	oral, 180 mg/kg/day, day 28, 28-day subacute toxicity		blood PDW	15.8 ± 0.23 fL
N=C(N)NCCC[C@@H](NC(=O)[C@H](N)Cc1c[nH]c2ccccc12)C(=O)N[C@H](CCCCN)C(=O)N[C@H](Cc1c[nH]c2ccccc12)C(=O)N[C@H](CCCNC(=N)N)C(=O)N[C@H](CCCCN)C(=O)N[C@H](Cc1c[nH]c2ccccc12)C(=O)N[C@H](CCCNC(=N)N)C(=O)N[C@H](CCCCN)C(=O)N[C@H](Cc1c[nH]c2ccccc12)C(=O)N[C@H](CCCNC(=N)N)C(=O)N[C@H](CCCCN)C(N)=O		mouse, spleen	intravenous, 40 mg/kg single dose, 7 days		organ index	0.522
CSCC[C@H](N)C(=O)N[C@@H](C)C(=O)N[C@@H](CCCNC(=N)N)C(=O)N[C@@H](CCCNC(=N)N)C(=O)N[C@@H](CC(=O)O)C(=O)N[C@@H](CCCCN)C(=O)N[C@H](C(=O)N[C@@H](CC(=O)O)C(=O)N[C@@H](Cc1ccccc1)C(=O)N[C@@H](C)C(=O)N[C@@H](CCCNC(=N)N)C(=O)N[C@@H](CCCNC(=N)N)C(=O)N[C@@H](CCCNC(=N)N)C(=O)N[C@@H](CCCNC(=N)N)C(=O)NCCCCCC(=O)NCCCCC(NC(=O)CCCCCNC(=O)[C@H](CCCNC(=N)N)NC(=O)[C@H](CCCNC(=N)N)NC(=O)[C@H](CCCNC(=N)N)NC(=O)[C@H](CCCNC(=N)N)NC(=O)[C@H](C)NC(=O)[C@H](Cc1ccccc1)NC(=O)[C@H](CC(=O)O)NC(=O)[C@@H](NC(=O)[C@H](CCCCN)NC(=O)[C@H](CC(=O)O)NC(=O)[C@H](CCCNC(=N)N)NC(=O)[C@H](CCCNC(=N)N)NC(=O)[C@H](C)NC(=O)[C@@H](N)CCSC)[C@@H](C)O)C(=O)NCCCCC(NC(=O)C(CCCCNC(=O)CCCCCNC(=O)[C@H](CCCNC(=N)N)NC(=O)[C@H](CCCNC(=N)N)NC(=O)[C@H](CCCNC(=N)N)NC(=O)[C@H](CCCNC(=N)N)NC(=O)[C@H](C)NC(=O)[C@H](Cc1ccccc1)NC(=O)[C@H](CC(=O)O)NC(=O)[C@@H](NC(=O)[C@H](CCCCN)NC(=O)[C@H](CC(=O)O)NC(=O)[C@H](CCCNC(=N)N)NC(=O)[C@H](CCCNC(=N)N)NC(=O)[C@H](C)NC(=O)[C@@H](N)CCSC)[C@@H](C)O)NC(=O)CCCCCNC(=O)[C@H](CCCNC(=N)N)NC(=O)[C@H](CCCNC(=N)N)NC(=O)[C@H](CCCNC(=N)N)NC(=O)[C@H](CCCNC(=N)N)NC(=O)[C@H](C)NC(=O)[C@H](Cc1ccccc1)NC(=O)[C@H](CC(=O)O)NC(=O)[C@@H](NC(=O)[C@H](CCCCN)NC(=O)[C@H](CC(=O)O)NC(=O)[C@H](CCCNC(=N)N)NC(=O)[C@H](CCCNC(=N)N)NC(=O)[C@H](C)NC(=O)[C@@H](N)CCSC)[C@@H](C)O)C(N)=O)[C@@H](C)O (some centres unmarked)		C57BL/6 mouse female, liver	dose not given, 3 h	relative to: total	tissue distribution	8.62% and 9.26% and 6.65%
CC(=O)NCCCC[C@@H]1NC(=O)[C@H](Cc2c[nH]c3c(C)cccc23)NC(=O)[C@H]([C@@H](C)O)NC(=O)[C@H](CC(N)=O)NC(=O)[C@@H](NC(C)=O)C(C)(C)SSC(C)(C)[C@@H](C(=O)N[C@@H](Cc2ccc(OCCN)cc2)C(=O)N[C@@H](Cc2ccc3ccccc3c2)C(=O)NC2(C(=O)N[C@@H](CCC(=O)O)C(=O)N[C@@H](CC(N)=O)C(=O)N[C@@H](Cc3cccnc3)C(=O)N(C)CC(N)=O)CCOCC2)NC1=O		cynomolgus monkey, blood	0.13 µM, 2 h		whole blood to plasma concentration ratio	0.7 ± 0.04
CCCCCCCCCCCCCCCC(=O)OCC(CSC[C@H](N)C(=O)N[C@@H](CO)C(=O)N[C@@H](CCCCN)C(=O)N[C@@H](CCCCN)C(=O)N[C@@H](CCCCN)C(=O)N[C@@H](CCCCN)C(=O)NCCCCCC(=O)N[C@@H](CCCCN)C(=O)N[C@@H](CC(C)C)C(=O)N[C@H](C(=O)N[C@@H](Cc1ccccc1)C(=O)N[C@@H](Cc1ccccc1)C(=O)N[C@@H](Cc1ccc2ccccc2c1)C(=O)O)C(C)C)OC(=O)CCCCCCCCCCCCCCC (some centres unmarked)		C57BL/6J mouse, serum	intraperitoneal, dose not given		serum ALT	12 U/L and 12.1 U/L and 12.2 U/L
N=C(N)NCCC[C@H](NC(=O)[C@H](CCCNC(=N)N)NC(=O)[C@H](CCCNC(=N)N)NC(=O)[C@H](CCC(N)=O)NC(=O)[C@H](CCCNC(=N)N)NC(=O)[C@H](CCCNC(=N)N)NC(=O)[C@H](CCCCN)NC(=O)[C@H](CCCCN)NC(=O)[C@H](CCCNC(=N)N)NC(=O)CNC(=O)[C@H](Cc1ccc(O)cc1)NC(=O)[C@H](Cc1ccccc1)NC(=O)[C@H](Cc1ccccc1)NC(=O)[C@H](Cc1ccccc1)NC(=O)OCC1c2ccccc2-c2ccccc21)C(=O)O		C57BL/6 mice	intraperitoneal, 20 mg/kg, 2 h	direction not given	health score	5
C[C@@H]1COCCN1c1nc(NCc2cccnc2C(F)(F)F)c2cccnc2n1		human hepatocytes	donor		intrinsic clearance	1.7 µL/min/10⁶ cells
CC[C@H](C)[C@H](NC(=O)[C@H](CCCCN)NC(=O)CNC(=O)[C@H](CC(C)C)NC(=O)[C@H](Cc1ccccc1)NC(=O)[C@H](CCCCN)NC(=O)[C@H](CO)NC(=O)[C@H](Cc1ccccc1)NC(=O)[C@H](Cc1c[nH]c2ccccc12)NC(=O)[C@H](CCC(N)=O)NC(=O)[C@@H](NC(=O)[C@H](Cc1ccccc1)NC(=O)CCCCCNC(=O)CN1CCN(CC(=O)O)CCN(CC(=O)O)CCN(CC(=O)O)CC1)C(C)C)C(=O)N[C@@H](CCC(=O)O)C(=O)N1CCC[C@H]1C(=O)N[C@@H](CC(=O)O)C(=O)N[C@H](C(=O)N[C@@H](CO)C(=O)N[C@@H](CCC(N)=O)C(=O)N[C@H](C(=O)N[C@@H](CCC(N)=O)C(=O)N[C@@H](CC(=O)O)C(=O)N1CCC[C@H]1C(=O)N[C@@H](CC(N)=O)C(=O)N[C@@H](CC(=O)O)C(=O)N[C@@H](CCC(N)=O)C(=O)N[C@@H](Cc1ccc(O)cc1)C(=O)N[C@@H](CCC(=O)O)C(=O)N1CCC[C@H]1C(=O)N[C@@H](Cc1ccccc1)C(=O)O)C(C)C)C(C)C [copper-64 labelled]	dynamic PET	mouse both sexes, CT26 tumour, untreated, tumour	intravenous, 100 µCi/mouse, 150 s		SUVmean	0.55 SUV
N#[11C]c1ccc(-c2csc(NN=C3CCCC3)n2)cc1	radio-HPLC	C57BL/6 mouse, plasma	intravenous, 37 MBq, 15 min		unchanged compound	5.97% and 6%
O=C1NC2(CC2)COc2ncc(F)cc2[C@H]2COCCN2c2ccn3ncc1c3n2		Sprague-Dawley rats, female, blood	oral, 5 mg/kg/day, end of treatment, 4-week subacute toxicity		haematocrit	40.8 ± 4.5%
